Measurements of several laboratories.
Each line is one published result; not all experiments were run side by side. Values joined by “and” are separate records of one study, mostly repeats; a detail may differ. Numbers after ± are the reported error.
Aryl hydrocarbon receptor: Aryl hydrocarbon receptor (Danio rerio, UniProt Q9YGV3)
ABL1 T315I: Tyrosine-protein kinase ABL1 (ABL1, Homo sapiens, UniProt P00519, T315I)
SMARCA2: SWI/SNF-related matrix-associated actin-dependent regulator of chromatin subfamily A member 2 (SMARCA2, Homo sapiens, UniProt P51531)
SET: Protein SET (SET, Homo sapiens, UniProt Q01105)
T1: riboswitch RNA yjdF aptamer (Bacillus subtilis); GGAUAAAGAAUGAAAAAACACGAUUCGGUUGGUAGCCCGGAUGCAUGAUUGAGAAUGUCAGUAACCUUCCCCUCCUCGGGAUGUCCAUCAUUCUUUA

Structure (SMILES)	target	test	test system	setting	how to read	endpoint	result
CC[C@H](C)[C@H](NC(=O)[C@H](CCCNC(=N)N)NC(=O)[C@H](Cc1c[nH]cn1)NC(=O)[C@H](CCCNC(=N)N)NC(=O)[C@H](CC(=O)O)NC(=O)[C@@H](N)CC(=O)O)C(=O)N[C@@H](CCC(=O)O)C(=O)N[C@@H](CCC(=O)O)C(=O)N[C@@H](CCCCN)C(=O)N[C@@H](CCCNC(=N)N)C(=O)N[C@@H](CCCCN)C(=O)N[C@@H](CCCNC(=N)N)C(=O)N[C@H](C(=O)N[C@@H](Cc1ccc(O)cc1)C(=O)N[C@@H](CCC(=O)O)C(=O)N[C@H](C(=O)N[C@@H](Cc1ccccc1)C(=O)N[C@@H](CCCCN)C(=O)N[C@@H](CO)C(=O)N[C@H](C(=O)N[C@@H](CCSC)C(=O)N[C@@H](CCCCN)C(=O)N[C@@H](CCCCN)C(=O)N[C@@H](CO)C(=O)N1CCC[C@H]1C(=O)N[C@@H](Cc1ccccc1)C(=O)N[C@@H](CC(N)=O)C(=O)NCC(=O)N1CCC[C@H]1C(=O)O)[C@@H](C)CC)[C@@H](C)O)[C@@H](C)O	NF-kappa-B inhibitor alpha (Homo sapiens, UniProt P25963)	binding, ITC	–	293 K, 150 mM NaCl	–	ΔG	-8.2 ± 0.3 kcal/mol
Cc1cc2nc3[nH]c(=O)[nH]c(=O)c3nc2cc1C	T1, riboswitch RNA yjdF aptamer (Bacillus subtilis)	fluorescence titration	–	together with: 380 nM lumichrome	–	Kd	3.4 µM
CN1CCC2(CC1)NC(=O)c1c(c3ccc(Cl)c(Cl)c3n1C)C2C#N (racemic)	Serine/threonine-protein kinase VRK3 (VRK3, Homo sapiens, UniProt Q8IV63)	thermal stability, thermal shift	–	10 µM	higher = stronger binding	delta Tm	0.1 °C
Oc1ccc(/C=C/c2cc(O)cc(O)c2)cc1	O-methyltransferase (Sorghum bicolor, UniProt A0A1B6PFV1)	ITC	–	endothermic site, two-site model, together with: SFG	–	∆H	2.63 kcal/mol
c1cnn2ncc(-c3ccnc(N4CCC45COC5)n3)c2c1	ABL1 (Homo sapiens, UniProt P00519, Q252H)	KINOMEscan	–	1 µM	baseline: control	remaining binding	61%
CCCCCCCCCCCCC/C=C/[C@@H](O)[C@H](CO)NC(=O)CCCCCCCCCCCCCCCCCCCCC	Protein SET (SET, Homo sapiens, UniProt Q01105, Y135C)	lipid binding, GFP pull-down LC-MS/MS	A549 overexpressing GFP-tagged protein	–	baseline: eluate plus flow-through	lipid fraction bound	14.3%
Nc1nc2c(ncn2[C@@H]2O[C@H](COP(=O)(O)O)[C@@H](O)[C@H]2O)c(=O)[nH]1	GUK1 (Homo sapiens, UniProt Q16774, Y53A)	enzyme activity, NADH-coupled	–	15.62 µM	–	reaction rate	-1.36 s⁻¹ and 1.61 s⁻¹ and -1.54 s⁻¹
O=C1C[C@@H](c2ccccc2)Oc2cc(O)cc(O)c21	Aryl hydrocarbon receptor	reporter gene, agonist, luciferase reporter	ZF-4	1.524 µM	baseline: vehicle control	fold change	0.767
CN(C)C/C=C/C(=O)Nc1ccc(C(=O)Nc2cccc(Nc3ncc(Cl)c(-c4c[nH]c5ccccc45)n3)c2)cc1	Cyclin-dependent kinase 7, with cyclin H, MAT1 (CDK7, Homo sapiens, UniProt P50613)	kinase activity, Kinase-Glo	–	concentration not given	–	normalized luminescence	1.08
O=C(C#Cc1ccc(F)c(F)c1)c1cccc(Cl)c1	mvfR (Pseudomonas aeruginosa, UniProt Q9I4X0)	receptor binding	–	concentration not given, 1.5 h, together with: PQS at 1:1 ratio	baseline: control	binding	80%
CCN1CCC[C@H]1CNC(=O)c1c(O)c(Cl)cc(Cl)c1OC	GPR52 (Homo sapiens, UniProt Q9Y2T5)	β-arrestin recruitment, TANGO luminescence	–	concentration not given	baseline: basal luminescence	log2 fold change	-0.113
CN1CCN(c2cc(-c3ccncc3)c(-c3ccc4ccccc4c3)nn2)CC1	SSTR5 (Homo sapiens, UniProt P35346)	agonist, FLIPR	–	12.5 µM	–	activation	0.2%
Cc1cc2ccccc2c2ccc3ccccc3c12	Aryl hydrocarbon receptor	reporter gene, agonist, luciferase reporter	ZF-4	123.5 µM	baseline: vehicle control	fold change	4.33
O=C(Nc1cccc2[nH]ccc12)c1ccccc1Cl	Alpha-synuclein (SNCA, Homo sapiens, UniProt P37840)	ThT kinetics	–	concentration not given, together with: SNCA 2 µM	–	fibril formation	inhibited
c1coc(-c2n[nH]cc2-c2ccnc3ccccc23)c1	pH-response regulator protein palF/RIM8 (RIM8, Candida albicans, UniProt Q9UW13)	kinase binding, MIB/MS competition	Candida albicans lysate	1 µM	baseline: DMSO, negative = stronger binding	log2 fold change	-0.33
O=C(COc1ccc(C2CCC(=O)NC2=O)cc1)NCCCCCCN1CCc2c(c3ccccc3n2Cc2ccc(C(=O)NO)cc2)C1 (centres unmarked)	HDAC6 (Homo sapiens, UniProt Q9UBN7)	protein degradation, degrader, western blot	MM1.S cells	24 h	baseline: HDAC10 over HDAC6	DC50 ratio	1.3 fold
CC(=O)c1ccccc1O	Or8a1 (Mus musculus, UniProt Q60893)	odorant-evoked current, agonist	isolated olfactory neurons	–	baseline: acetophenone saturated response	Emax	82 ± 6%
CN(C)c1nccc(-c2cnc3ncccn23)n1	ABL1 T315I	KINOMEscan	–	1 µM	–	remaining binding	68%
c1ccc2c(c1)-c1cccc3c1c-2cc1ccccc13	Aryl hydrocarbon receptor	reporter gene, agonist, luciferase reporter	ZF-4	370.37 µM	baseline: vehicle control	fold change	8.4
c1ccc(C(NCc2cccnc2)(c2ccccc2)c2ccccc2)cc1	KCNQ1 (Homo sapiens, UniProt P51787)	patch clamp	–	300 pM, at +60 mV	–	inhibition time constant	70 ms
O=C(O)c1ccc(Nc2ncc3c(n2)-c2ccc(Cl)cc2C(c2c(F)cccc2F)=NC3)cc1	human c-RAF(h)	kinase activity	–	1 µM	–	remaining activity	115%

Structure (SMILES)	target	test	test system	setting	how to read	endpoint	result
O=c1nc(SCc2cc(F)cc(C(F)(F)F)c2)nc(SCc2ccc3nc(Cl)ccc3c2)[nH]1	TOP2A (Homo sapiens, UniProt P11388)	ATPase activity	–	125 µM, together with: ATP 0.025 mM	–	ATP hydrolysis rate	0.197 µM/min and 0.363 µM/min
CC(=C/C(=O)O)/C=C/C=C(\C)C1C=C2C(C)(C)CCCC2(C)O1 (centres unmarked)	Rhodopsin (RHO, Homo sapiens, UniProt P08100, P23H)	immunostaining, measured: opsin	COS-7 transfected	20.00 µM, unit not given	baseline: surface over total stained cells	plasma membrane localization	0.92
Cc1cccc2c1ccc1cc(C(C)C)ccc12	Aryl hydrocarbon receptor	reporter gene, agonist, luciferase reporter	ZF-4	123.5 µM	baseline: vehicle control	fold change	1.48
Nc1nnc(-c2ccccc2O)cc1N1CCN(Cc2ccc(OCCOCCNc3cccc4c3C(=O)N(C3CCC(=O)NC3=O)C4=O)c(F)c2)CC1 (centres unmarked)	SMARCA2	degrader, immunoblot	NCI-H1975	96 h	–	Dmax	95%
Cc1ncsc1-c1ccc(CNC(=O)[C@@H]2C[C@@H](O)CN2C(=O)[C@@H](NC(=O)C2(F)CC2)C(C)(C)C)c(OCCOCCOCCN2CCN(c3cc(-c4ccccc4O)nnc3N)CC2)c1	SMARCA2	ternary complex binding, AlphaLISA competition	HEK293 cell lysate	together with: full-length VCB	baseline: binary IC50 over ternary IC50	cooperativity factor alpha	4.6
CCCCCCCCCCCCC/C=C/[C@@H](O)[C@H](CO)NC(=O)CCCCCCCCCCCCCCCCCCCCCCCCC	SET	lipid binding, GFP pull-down LC-MS/MS	A549 overexpressing GFP-tagged protein	unit not given	baseline: vector-transfected cells	bound endogenous lipid	7.1
O=S(=O)(O)C1CCNCC1	GABA-A receptor; alpha-1/beta-2/gamma-2 (Rattus norvegicus, UniProt P18508+P62813+P63138)	chloride current, agonist, whole-cell patch clamp	HEK293 expressing GABAA	30 s	baseline: maximum	maximal response	89%
Nc1ccc(C(=O)O)cc1	BEST1, with wild-type BEST1 (Homo sapiens, UniProt O76090, L234P)	ion current, whole-cell patch clamp	HEK293 co-expressing mutant and wild-type	concentration not given, voltage 20 mV	–	current density	3.97 pA/pF and 10.8 pA/pF and 1.69 pA/pF and 3.19 pA/pF and 5.61 pA/pF and 2.73 pA/pF
Nc1ncnc2c1ncn2[C@@H]1O[C@H](COP(=O)(O)CP(=O)(O)OP(=O)(O)O)[C@@H](O)[C@H]1O	P2X purinoceptor 1 (P2RX1, Homo sapiens, UniProt P51575, M214A)	saturation binding	HEK293	130 nM	–	specific binding	1740 CCPM and 1720 CCPM and 3180 CCPM
CC(C)C[C@H](NC(=O)CNC(=O)c1cc(Cl)ccc1Cl)B(O)O	Proteasome component C5/PSMB8 (Homo sapiens, UniProt P20618+P28062)	inhibitor, jump dilution	–	1 h	–	reversibility	53 ± 7.6%
CCCC(CCC)c1nc2c(Nc3ccc(C#CCCCCCCCCN)cc3)nc3ccccc3c2[nH]1	ADRA1D (Homo sapiens, UniProt P25100)	PDSP screening	–	–	–	off-target affinity	inactive
COc1cc(C#CC(O)c2ccccc2OC)ccc1O (centres unmarked)	rhlR (Pseudomonas aeruginosa, UniProt P54292)	reporter gene, inhibitor, quorum sensing reporter strain	–	10 µM, 1.5 h	baseline: DMSO	remaining activity	56%
O=C(COP(=O)(O)O)[C@@H](O)[C@H](O)[C@H](O)COP(=O)(O)O	PMM2 (Homo sapiens, UniProt O15305)	–	–	0.5 mM, unit not given	baseline: activity at 0 mM set to 100	enzyme activity	82.9 and 89.7 and 93.9
O=C(O)C1CCCNC1 (centres unmarked)	SLC6A6 (Homo sapiens, UniProt P31641, Y138A)	binding, microscale thermophoresis	–	15.6 µM, room temperature, together with: 50 nM labelled protein	higher = more binding	normalised MST signal	0.433
CN(C)c1nccc(-c2cnn3ncccc23)n1	ABL1 T315I	KINOMEscan	–	1 µM	baseline: control	remaining binding	63%
CCCCCCCCCCCCC/C=C/[C@@H](O)[C@H](CO)NC(=O)CCCCCCCCCCCCCCCCC	SET	lipid binding, GFP pull-down LC-MS/MS	A549 overexpressing GFP-tagged protein	ER-targeted construct, unit not given	baseline: vector-transfected cells	bound endogenous lipid	4.9
CC[C@@H]1[C@H](F)C(=O)N[C@@H]1COc1nccc2cc(C(N)=O)c(OC)cc12	ATM (Homo sapiens, UniProt Q13315)	ATP-site probe binding, ActivX profiling	THP-1 cell lysate	0.04 mM	–	inhibition	-2.1%
Cc1cccc(N2CC(C(=O)O)CC2=O)c1 (centres unmarked)	DDB1- and CUL4-associated factor 7 (Homo sapiens, UniProt P61962)	binding, affinity selection mass spectrometry	–	–	baseline: other proteins in batch	log fold enrichment	-0.102
COc1cc(Nc2ncc3c(n2)-c2ccc(Cl)cc2C(c2c(F)cccc2OC)=NC3)ccc1C(=O)O	ABL1	kinase activity	–	1 µM	–	remaining activity	32%
CC1=C(/C=C/C(C)=C/C=C/C(C)=C/C=O)C(C)(C)CCC1	Rhodopsin (RHO, Bos taurus, UniProt P02699, G270S)	retinal release, Trp FRET	lipid bicelles	28 °C, G270S mutant	baseline: wild-type rhodopsin	relative koff	1.84 ± 0.02

For quick reference, copied from above:
Structure (SMILES)	target	test	test system	setting	how to read	endpoint	result
CCCCCCCCCCCCC/C=C/[C@@H](O)[C@H](CO)NC(=O)CCCCCCCCCCCCCCCCC	SET	lipid binding, GFP pull-down LC-MS/MS	A549 overexpressing GFP-tagged protein	ER-targeted construct, unit not given	baseline: vector-transfected cells	bound endogenous lipid	4.9
CC[C@@H]1[C@H](F)C(=O)N[C@@H]1COc1nccc2cc(C(N)=O)c(OC)cc12	ATM (Homo sapiens, UniProt Q13315)	ATP-site probe binding, ActivX profiling	THP-1 cell lysate	0.04 mM	–	inhibition	-2.1%
